Results pooled from the literature.
Numbered parts are unrelated; each lists some results of a single study.
Sequence of UniProt P15735 (whole entry, looked up): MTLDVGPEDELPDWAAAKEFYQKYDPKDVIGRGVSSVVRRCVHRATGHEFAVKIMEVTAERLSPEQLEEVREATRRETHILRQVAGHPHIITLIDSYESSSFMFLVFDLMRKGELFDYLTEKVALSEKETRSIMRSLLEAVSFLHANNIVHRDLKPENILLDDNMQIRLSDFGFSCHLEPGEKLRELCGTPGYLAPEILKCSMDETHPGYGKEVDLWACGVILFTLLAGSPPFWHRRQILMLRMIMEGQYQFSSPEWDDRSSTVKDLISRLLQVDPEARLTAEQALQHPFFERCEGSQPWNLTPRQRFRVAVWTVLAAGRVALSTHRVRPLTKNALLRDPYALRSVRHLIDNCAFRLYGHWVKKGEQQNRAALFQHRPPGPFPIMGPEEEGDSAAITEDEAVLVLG
Sequence of UniProt Q9H093 (whole entry, looked up): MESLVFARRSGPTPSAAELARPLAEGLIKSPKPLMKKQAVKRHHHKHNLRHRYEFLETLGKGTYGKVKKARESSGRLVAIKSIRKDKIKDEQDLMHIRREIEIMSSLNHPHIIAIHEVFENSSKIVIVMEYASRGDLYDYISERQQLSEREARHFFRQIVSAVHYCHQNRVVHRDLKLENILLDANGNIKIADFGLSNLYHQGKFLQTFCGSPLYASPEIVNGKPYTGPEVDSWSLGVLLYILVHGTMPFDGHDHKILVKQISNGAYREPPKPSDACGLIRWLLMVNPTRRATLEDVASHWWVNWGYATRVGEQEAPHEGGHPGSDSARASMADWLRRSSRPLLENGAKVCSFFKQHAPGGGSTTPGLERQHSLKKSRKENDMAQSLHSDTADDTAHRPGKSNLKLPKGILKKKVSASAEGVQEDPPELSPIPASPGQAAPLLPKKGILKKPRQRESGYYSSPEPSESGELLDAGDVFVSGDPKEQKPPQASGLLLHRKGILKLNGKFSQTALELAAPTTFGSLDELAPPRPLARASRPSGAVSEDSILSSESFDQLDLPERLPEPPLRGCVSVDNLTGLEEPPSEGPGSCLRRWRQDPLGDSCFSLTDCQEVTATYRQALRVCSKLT
Sequence of UniProt P54646 (whole entry, looked up): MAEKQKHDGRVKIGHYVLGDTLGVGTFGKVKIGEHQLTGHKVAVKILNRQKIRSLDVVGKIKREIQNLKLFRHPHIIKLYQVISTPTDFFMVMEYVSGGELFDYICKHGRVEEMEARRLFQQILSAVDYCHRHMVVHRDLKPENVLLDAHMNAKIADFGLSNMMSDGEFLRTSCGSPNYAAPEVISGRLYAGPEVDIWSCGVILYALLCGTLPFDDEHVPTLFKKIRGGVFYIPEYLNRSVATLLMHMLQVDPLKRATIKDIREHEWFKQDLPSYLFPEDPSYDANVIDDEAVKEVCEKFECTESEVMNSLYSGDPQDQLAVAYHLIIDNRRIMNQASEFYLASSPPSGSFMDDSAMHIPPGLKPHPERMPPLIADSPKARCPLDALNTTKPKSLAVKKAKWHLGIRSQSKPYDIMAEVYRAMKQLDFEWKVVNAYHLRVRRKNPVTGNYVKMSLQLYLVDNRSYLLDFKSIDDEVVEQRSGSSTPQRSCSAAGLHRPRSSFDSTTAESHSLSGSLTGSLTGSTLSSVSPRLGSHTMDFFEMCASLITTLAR
Sequence of UniProt P29597 (whole entry, looked up): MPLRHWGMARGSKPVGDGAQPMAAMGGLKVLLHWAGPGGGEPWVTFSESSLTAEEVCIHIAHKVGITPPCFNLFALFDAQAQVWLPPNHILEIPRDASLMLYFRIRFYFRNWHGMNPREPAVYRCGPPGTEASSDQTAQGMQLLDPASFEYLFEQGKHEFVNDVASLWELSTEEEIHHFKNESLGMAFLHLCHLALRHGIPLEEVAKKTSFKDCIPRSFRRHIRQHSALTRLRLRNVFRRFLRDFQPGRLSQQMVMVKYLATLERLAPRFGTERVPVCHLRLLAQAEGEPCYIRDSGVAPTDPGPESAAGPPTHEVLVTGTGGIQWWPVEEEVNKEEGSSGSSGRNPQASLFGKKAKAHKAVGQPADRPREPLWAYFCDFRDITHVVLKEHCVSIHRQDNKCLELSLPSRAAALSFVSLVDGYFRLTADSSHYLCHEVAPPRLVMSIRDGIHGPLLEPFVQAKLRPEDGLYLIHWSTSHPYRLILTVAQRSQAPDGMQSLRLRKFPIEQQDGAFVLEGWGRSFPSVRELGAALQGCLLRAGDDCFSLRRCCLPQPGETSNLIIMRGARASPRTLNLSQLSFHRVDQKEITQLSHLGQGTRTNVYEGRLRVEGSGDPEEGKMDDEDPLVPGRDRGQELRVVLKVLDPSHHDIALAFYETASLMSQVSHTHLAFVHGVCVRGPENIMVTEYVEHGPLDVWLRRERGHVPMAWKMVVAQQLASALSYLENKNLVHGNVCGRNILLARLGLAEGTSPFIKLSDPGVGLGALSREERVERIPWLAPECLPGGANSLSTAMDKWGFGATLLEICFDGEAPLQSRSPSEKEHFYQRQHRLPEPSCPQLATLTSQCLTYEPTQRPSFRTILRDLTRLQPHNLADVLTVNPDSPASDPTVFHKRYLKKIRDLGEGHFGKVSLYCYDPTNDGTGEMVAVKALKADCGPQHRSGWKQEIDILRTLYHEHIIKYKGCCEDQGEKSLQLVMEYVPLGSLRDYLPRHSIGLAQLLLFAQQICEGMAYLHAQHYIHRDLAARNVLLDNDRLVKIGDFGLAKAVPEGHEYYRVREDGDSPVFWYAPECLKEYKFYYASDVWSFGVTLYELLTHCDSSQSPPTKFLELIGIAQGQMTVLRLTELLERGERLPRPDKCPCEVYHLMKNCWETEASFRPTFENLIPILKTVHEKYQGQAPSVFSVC
Sequence of UniProt Q8IY84 (whole entry, looked up): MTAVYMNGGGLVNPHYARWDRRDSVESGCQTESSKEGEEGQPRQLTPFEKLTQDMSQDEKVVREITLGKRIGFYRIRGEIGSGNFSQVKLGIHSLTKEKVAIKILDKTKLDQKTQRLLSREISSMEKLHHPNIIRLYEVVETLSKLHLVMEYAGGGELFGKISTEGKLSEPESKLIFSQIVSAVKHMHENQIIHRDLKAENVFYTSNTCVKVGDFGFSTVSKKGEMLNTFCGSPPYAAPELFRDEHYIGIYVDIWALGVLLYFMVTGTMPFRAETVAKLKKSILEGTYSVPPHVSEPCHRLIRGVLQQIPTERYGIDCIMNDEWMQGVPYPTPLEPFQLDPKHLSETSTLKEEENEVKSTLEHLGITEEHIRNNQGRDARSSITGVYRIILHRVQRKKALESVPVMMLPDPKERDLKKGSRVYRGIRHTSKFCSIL
Sequence of UniProt P32298 (whole entry, looked up): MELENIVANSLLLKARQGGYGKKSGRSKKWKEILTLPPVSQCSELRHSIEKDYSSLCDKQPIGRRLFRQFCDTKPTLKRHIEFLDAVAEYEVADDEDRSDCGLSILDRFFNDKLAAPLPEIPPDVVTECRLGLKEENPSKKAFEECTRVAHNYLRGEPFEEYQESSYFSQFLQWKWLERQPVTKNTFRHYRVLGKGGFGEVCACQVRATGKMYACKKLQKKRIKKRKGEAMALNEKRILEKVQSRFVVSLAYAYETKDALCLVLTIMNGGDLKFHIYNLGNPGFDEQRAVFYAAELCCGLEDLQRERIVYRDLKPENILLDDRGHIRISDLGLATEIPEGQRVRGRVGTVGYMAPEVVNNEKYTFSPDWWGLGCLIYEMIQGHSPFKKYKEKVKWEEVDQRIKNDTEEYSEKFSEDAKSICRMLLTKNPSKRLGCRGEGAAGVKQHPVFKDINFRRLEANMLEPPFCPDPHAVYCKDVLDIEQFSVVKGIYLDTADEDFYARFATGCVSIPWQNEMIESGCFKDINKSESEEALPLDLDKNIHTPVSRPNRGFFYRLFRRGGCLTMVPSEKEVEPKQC

Set 1
Species: mouse
Sample: microsomes or S9
Tested at: 2 µM
Time: 0.5 h
| SMILES | remaining compound [%] |
| --- | --- |
| Cc1ccc(-c2nc3n(CC(=O)Nc4cccc(F)c4)c4c(c(=O)n3n2)CCC4)cc1 | 19.4 |
| CC(C)C[C@@H]1NC(=O)[C@H](Cc2nc(Br)[nH]c2Br)NC1=O | 77.9 |
| COC(=O)c1ccc(S(C)(=O)=O)c(O)c1Cl | 65.3 |
| CCOc1nc(Nc2nc(-c3ccccc3)cs2)nc(OCC)n1 | 87.7 |
| Clc1ccc2c(c1)nc(-c1cccnc1Cl)n1ncc(Br)c21 | > 100 |
| Cc1nc(C2=C(O)CN(C3CS(=O)(=O)CC3O)C2=N)sc1C (stereo not shown) | 70.4 |
| CCn1nccc1-c1cc(C(=O)O)c2ccc(Cl)c(C)c2n1 | 79.5 |
| Cc1ccc2c(-c3cn4c(C)c(C)sc4n3)c(C)[nH]c2c1 | 0.118 |
| CCN(CC)S(=O)(=O)c1ccc(NC(=O)CN(c2cc(C)ccc2C)S(C)(=O)=O)cc1 | < 1 |

Set 2
Organism: Sarcocystis neurona
Effect on: parasite growth
Tested at: 10 µM
Time: 96 h
Baseline: untreated
| SMILES | log2 fold change |
| --- | --- |
| C[C@H]1O[C@@H](O[C@H]2[C@@H](O)C[C@H](O[C@H]3[C@@H](O)C[C@H](O[C@H]4CC[C@@]5(C)[C@H](CC[C@@H]6[C@@H]5C[C@@H](O)[C@]5(C)[C@@H](C7=CC(=O)OC7)CC[C@]65O)C4)O[C@@H]3C)O[C@@H]2C)C[C@H](O)[C@@H]1O | -1.03 |
| CC(C(=O)O)c1ccc(-c2ccccc2)c(F)c1 (stereo not shown) | -0.07 |
| NCc1ccc(S(N)(=O)=O)cc1 | 0.44 |
| CN(C)CCOC(c1ccccc1)c1ccccc1 | 0.25 |
| O=C1CN2Cc3c(ccc(Cl)c3Cl)N=C2N1 | 0.3 |
| COCc1c(C(C)C)nc(C(C)C)c(/C=C/[C@@H](O)C[C@@H](O)CC(=O)O)c1-c1ccc(F)cc1 | -0.52 |
| Nc1ccn([C@@H]2O[C@H](CO)[C@@H](O)[C@@H]2O)c(=O)n1 | 0.48 |
| CN(C)CCC=C1c2ccccc2COc2ccccc21 | 0.31 |
| C[N+]1(C)CCC(OC(=O)C(O)(c2ccccc2)C2CCCC2)C1 (stereo not shown) | 0.43 |

Set 3
Structure (SMILES): CN1CCN(c2cnc3c(C4CCN(C(=O)c5ccc(OC(F)(F)F)cc5N)CC4)ncnc3c2)CC1
Effect on: cell-free assay
Method: competition with immobilised ligand
Tested at: 1 µM
| target | remaining binding [%] |
| --- | --- |
| Ribosomal protein S6 kinase alpha-1, C-terminal kinase domain (RPS6KA1, Homo sapiens, UniProt Q15418) | 100 |
| TIE1 (Homo sapiens, UniProt P35590) | 80 |
| HUNK (Homo sapiens, UniProt P57058) | 95 |
| PRKAA2 (Homo sapiens, UniProt P54646) | 100 |
| ULK3 (Homo sapiens, UniProt Q6PHR2) | 100 |
| ERBB2 (Homo sapiens, UniProt P04626) | 100 |
| MARK3 (Homo sapiens, UniProt P27448) | 93 |
| GRK4 (Homo sapiens, UniProt P32298) | 100 |
| MAPK7 (Homo sapiens, UniProt Q13164) | 0.1 |
| Non-receptor tyrosine-protein kinase TYK2, JH2 (TYK2, Homo sapiens, UniProt P29597) | 100 |
| PHKG2 (Homo sapiens, UniProt P15735) | 100 |
| MAP3K2 (Homo sapiens, UniProt Q9Y2U5) | 100 |
| PHKG1 (Homo sapiens, UniProt Q16816) | 100 |
| STK25 (Homo sapiens, UniProt O00506) | 92 |
| NUAK2 (Homo sapiens, UniProt Q9H093) | 90 |
| RET (Homo sapiens, UniProt P07949, V804L) | 97 |
| Tyrosine-protein kinase ABL1, phosphorylated (ABL1, Homo sapiens, UniProt P00519, F317L) | 100 |
| PRKD2 (Homo sapiens, UniProt Q9BZL6) | 100 |
| Tyrosine-protein kinase JAK2, JH1 (JAK2, Homo sapiens, UniProt O60674) | 83 |
| BTK (Homo sapiens, UniProt Q06187) | 100 |
| NIM1K (Homo sapiens, UniProt Q8IY84) | 100 |
| Tyrosine-protein kinase ABL1, non-phosphorylated (ABL1, Homo sapiens, UniProt P00519, Q252H) | 79 |
| FYN (Homo sapiens, UniProt P06241) | 100 |
| EPHA6 (Homo sapiens, UniProt Q9UF33) | 100 |
| Tyrosine-protein kinase ABL1, phosphorylated (ABL1, Homo sapiens, UniProt P00519, T315I) | 100 |

Set 4
Method: logD(dd/w) and ALogP
Setting: JT method
| SMILES | lipophilic permeability efficiency |
| --- | --- |
| CC(C)C[C@@H]1NC(=O)[C@H](C)NC(=O)[C@H](CC(C)C)NC(=O)[C@@H](CC(C)C)NC(=O)[C@H](CC(C)C)NC(=O)[C@H](C)NC(=O)[C@H](CCC(=O)N2CCCC2)NC1=O | 1.38 |
| CC(C)C[C@@H]1NC(=O)[C@H](CC(C)C)NC(=O)[C@@H](CC(C)C)NC(=O)[C@H](C)NC(=O)[C@H](C(C)C)NC(=O)[C@H](C)NC(=O)[C@H](C)NC1=O | 2.37 |
| CC(C)C[C@@H]1NC(=O)[C@H](CC(C)C)NC(=O)[C@@H](C(C)C)NC(=O)[C@H](Cc2cscn2)NC(=O)[C@@H](Cc2cscn2)NC(=O)[C@H](Cc2cscn2)NC(=O)[C@H](CCC(=O)N2CCCC2)NC1=O | 1.59 |
| CC(C)C[C@@H]1NC(=O)[C@H](C(C)C)NC(=O)[C@H](C)NC(=O)[C@@H](CC(C)C)NC(=O)[C@@H](CCC(=O)N2CCCC2)NC(=O)[C@H](CC(C)C)NC(=O)[C@@H](CC(C)C)NC1=O | 1.84 |
| CC(C)C[C@@H]1NC(=O)[C@H](C(C)C)NC(=O)[C@@H](CC(C)C)NC(=O)[C@@H](CC(C)C)NC(=O)[C@@H](Cc2cscn2)NC(=O)[C@H](CC(C)C)NC(=O)[C@@H](CC(C)C)NC1=O | 2.09 |
| CC(C)C[C@@H]1NC(=O)[C@H](C(C)C)NC(=O)[C@H](CC(C)C)NC(=O)[C@@H](CC(C)C)NC(=O)[C@H](CC(C)C)NC(=O)[C@H](C(C)C)NC(=O)[C@H](Cc2cscn2)NC1=O | 2.46 |
| CC(C)C[C@@H]1NC(=O)[C@H](C(C)C)NC(=O)[C@@H](CC(C)C)NC(=O)[C@@H](CC(C)C)NC(=O)[C@H](C)NC(=O)[C@H](CC(C)C)NC(=O)[C@@H](CC(C)C)NC1=O | 2.93 |
| CC(C)C[C@@H]1NC(=O)[C@H](CC(C)C)NC(=O)[C@H](CC(C)C)NC(=O)[C@H](CC(C)C)NC(=O)[C@@H](Cc2cscn2)NC(=O)[C@H](C)NC(=O)[C@H](CCC(=O)N2CCCC2)NC1=O | 1.82 |
| CC(C)C[C@@H]1NC(=O)[C@H](C(C)C)NC(=O)[C@H](C)NC(=O)[C@@H](CC(C)C)NC(=O)[C@H](C(C)C)NC(=O)[C@H](CC(C)C)NC(=O)[C@@H](CC(C)C)NC1=O | 2.43 |

Some of these lines once more (set 3):
| target | remaining binding [%] |
| --- | --- |
| STK25 (Homo sapiens, UniProt O00506) | 92 |
| ERBB2 (Homo sapiens, UniProt P04626) | 100 |
| PHKG1 (Homo sapiens, UniProt Q16816) | 100 |
| Tyrosine-protein kinase ABL1, phosphorylated (ABL1, Homo sapiens, UniProt P00519, F317L) | 100 |
| Non-receptor tyrosine-protein kinase TYK2, JH2 (TYK2, Homo sapiens, UniProt P29597) | 100 |
| HUNK (Homo sapiens, UniProt P57058) | 95 |
| FYN (Homo sapiens, UniProt P06241) | 100 |
